Assay results of several laboratories.
Lines come from different studies, so protocols differ.
T1: CREB1 160-280 (Rattus norvegicus); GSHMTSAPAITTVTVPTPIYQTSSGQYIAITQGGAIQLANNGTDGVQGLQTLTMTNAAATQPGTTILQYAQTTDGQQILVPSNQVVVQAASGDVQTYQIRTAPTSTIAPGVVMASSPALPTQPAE
B1: capsid protein residues 15-end 15-324 (Staphylococcus phage 80alpha, UniProt A4ZFB3); sequence looked up; chain ASNNVKPQVFNPDNVMMHEKKDGTLMNEFTTPILQEVMENSKIMQLGKYEPMEGTEKKFTFWADKPGAYWVGEGQKIETSKATWVNATMRAFKLGVILPVTKEFLNYTYSQFFEEMKPMIAEAFYKKFDEAGILNQGNNPFGKSIAQSIEKTNKVIKGDFTQDNIIDLEALLEDDELEANAFISKTQNRSLLRKIVDPETKERIYDRNSDSLDGLPVVNLKSSNLKRGELITGDFDKLIYGIPQLIEYKIDETAQLSTVKNEDGTPVNLFEQDMVALRATMHVALHIADDKAFAKLVPADKRTDSVPGEV
B2: PSMA5 (Homo sapiens, UniProt P28066); chain MFLTRSEYDRGVNTFSPEGRLFQVEYAIEAIKLGSTAIGIQTSEGVCLAVEKRITSPLMEPSSIEKIVEIDAHIGCAMSGLIADAKTLIDKARVETQNHWFTYNETMTVESVTQAVSNLALQFGEEDADPGAMSRPFGVALLFGGVDEKGPQLFHMDPSGTFVQCDARAIGSASEGAQSSLQEVYHKSMTLKEAIKSSLIILKQVMEEKLNATNIELATVQPGQNFHMFTKEELEEVIKDI
B3: IGFBP7 30-159 K146A (Homo sapiens, UniProt Q16270); chain DTCGPCEPASCPPLPPLGCLLGETRDACGCCPMCARGEGEPCGGGGAGRGYCAPGMECVKSRKRRKGKAGAAAGGPGVSGVCVCKSRYPVCGSDGTTYPSGCQLRAASQRAESRGEAAITQVSKGTCEQG
B4: SNAPC5 (Homo sapiens, UniProt O75971); chain MLSRLQELRKEEETLLRLKAALHDQLNRLKVEELALQSMISSRRGDEMLSSHTVPEQSHDMLVHVDNEASINQTTLELSTKSHVTEEEEEEEEEESDS
B5: yjoB (Bacillus subtilis, UniProt O34703); sequence looked up; chain MTNIPFIYQYEEKENERAAAGYGTFGYLITRIEETLYDQYGVFYELYASDDPNTEYWELLVEDVRSGSLEPEHVAYIFEKLEKKTFAYDEDEKEPDYTVHKSIRNSVYAYPEKGVAFARIPYFQDGSIMSFDCLFAVNDEKMRAFLEGVRPRLWEKSKRKVTVFTDGDGGTSREQEAIVREVQRSQVIMNPLLKKEIYRSIDQFFHSDKSFYQTYDIPYKRGILLYGPPGNGKTTLVKSIAGSIDAPVAYWQITEFTSSETIEEVFQAARRLAPAVLVIEDIDSMPEDVRSFFLNTLDGATSKEGLFLIGTTNYPEEIDPGLMNRAGRFDRAYEIGLPDEELRLEYMKMRGFGIFLSEGEIKNAAKLTEGFSFAQLGELYVSSALQWHQEGNHHIETMVKDMTGEQRKSQRGSWMERNKVGFH
B6: GATA2 (Homo sapiens, UniProt P23769); sequence looked up; chain MEVAPEQPRWMAHPAVLNAQHPDSHHPGLAHNYMEPAQLLPPDEVDVFFNHLDSQGNPYYANPAHARARVSYSPAHARLTGGQMCRPHLLHSPGLPWLDGGKAALSAAAAHHHNPWTVSPFSKTPLHPSAAGGPGGPLSVYPGAGGGSGGGSGSSVASLTPTAAHSGSHLFGFPPTPPKEVSPDPSTTGAASPASSSAGGSAARGEDKDGVKYQVSLTESMKMESGSPLRPGLATMGTQPATHHPIPTYPSYVPAAAHDYSSGLFHPGGFLGGPASSFTPKQRSKARSCSEGRECVNCGATATPLWRRDGTGHYLCNACGLYHKMNGQNRPLIKPKRRLSAARRAGTCCANCQTTTTTLWRRNANGDPVCNACGLYYKLHNVNRPLTMKKEGIQTRNRKMSNKSKKSKKGAECFEELSKCMQEKSSPFSAAALAGHMAPVGHLPPFSHSGHILPTPTPIHPSSSLSFGHPHPSSMVTAMG
B7: cysJ 52-599 (Escherichia coli, UniProt P38038); sequence looked up; chain AATPAPAAEMPGITIISASQTGNARRVAEALRDDLLAAKLNVKLVNAGDYKFKQIASEKLLIVVTSTQGEGEPPEEAVALHKFLFSKKAPKLENTAFAVFSLGDSSYEFFCQSGKDFDSKLAELGGERLLDRVDADVEYQAAASEWRARVVDALKSRAPVVATGAVNEIHTSPYSKDAPLVASLSVNQKITGRNSEKDVRHIEIDLGDSGMRYQPGDALGVWYQNDPALVKELVELLWLKGDEPVTVEGKTLPLNEALQWHFELTVNTANIVENYATLTRSETLLPLVGDKAKLQHYAATTPIVDMVRFSPAQLDAEALINLLRPLTPRLYSIASSQAEVENEVHVTVGVVRYDVEGRARAGGASSFLADRVEEEGEVRVFIEHNDNFRLPANPETPVIMIGPGTGIAPFRAFMQQRAADEAPGKNWLFFGNPHFTEDFLYQVEWQRYVKDGVLTRIDLAWSRDQKEKVYVQDKLREQGAELWRWINDGAHIYVCGDANRMAKDVEQALLEVIAEFGGMDTEAADEFLSELRVERRYQRDVY
B8: CCDC22 280-446 (Homo sapiens, UniProt O60826); chain GAGAKTGAPKGSRFTHSEKFTFHLEPQAQATQVSDVPATSRRPEQVTWAAQEQELESLREQLEGVNRSIEEVEADMKTLGVSFVQAESECRHSKLSTAEREQALRLKSRAVELLPDGTANLAKLQLVVENSAQRVIHLAGQWEKHRVPLLAEYRHLRKLQDCRELES
B9: TAF4 Q1 domain, 428-492 (Homo sapiens, UniProt O00268); chain GSHMTPTVLAPRLPQPPQNPTNIQNFQLPPGMVLVRSENGQLLMIPQQALAQMQAQAHAQPQTTMAPRP
B10: POL31 (Saccharomyces cerevisiae, UniProt P46957); sequence looked up; chain MDALLTKFNEDRSLQDENLSQPRTRVRIVDDNLYNKSNPFQLCYKKRDYGSQYYHIYQYRLKTFRERVLKECDKRWDAGFTLNGQLVLKKDKVLDIQGNQPCWCVGSIYCEMKYKPNVLDEVINDTYGAPDLTKSYTDKEGGSDEIMLEDESGRVLLVGDFIRSTPFITGVVVGILGMEAEAGTFQVLDICYPTPLPQNPFPAPIATCPTRGKIALVSGLNLNNTSPDRLLRLEILREFLMGRINNKIDDISLIGRLLICGNSVDFDIKSVNKDELMISLTEFSKFLHNILPSISVDIMPGTNDPSDKSLPQQPFHKSLFDKSLESYFNGSNKEILNLVTNPYEFSYNGVDVLAVSGKNINDICKYVIPSNDNGESENKVEEGESNDFKDDIEHRLDLMECTMKWQNIAPTAPDTLWCYPYTDKDPFVLDKWPHVYIVANQPYFGTRVVEIGGKNIKIISVPEFSSTGMIILLDLETLEAETVKIDI
B11: BECN1 1-171 (Homo sapiens, UniProt A0A024R1X5); sequence looked up; chain MEGSKTSNNSTMQVSFVCQRCSQPLKLDTSFKILDRVTIQELTAPLLTTAQAKPGETQEEETNSGEEPFIETPRQDGVSRRFIPPARMMSTESANSFTLIGEASDGGTMENLSRRLKVTGDLFDIMSGQTDVDHPLCEECTDTLLDQLDTQLNVTENECQNYKRCLEILEQ
B12: FERMT2 1-105 (Homo sapiens, UniProt Q96AC1); sequence looked up; chain MALDGIRMPDGCYADGTWELSVHVTDLNRDVTLRVTGEVHIGGVMLKLVEKLDVKKDWSDHALWWEKKRTWLLKTHWTLDKYGIQADAKLQFTPQHKLLRLQLPN
B13: Arc (Rattus norvegicus, UniProt Q63053); sequence looked up; chain MELDHMTTGGLHAYPAPRGGPAAKPNVILQIGKCRAEMLEHVRRTHRHLLTEVSKQVERELKGLHRSVGKLENNLDGYVPTGDSQRWKKSIKACLCRCQETIANLERWVKREMHVWREVFYRLERWADRLESMGGKYPVGSEPARHTVSVGVGGPEPYCQEADGYDYTVSPYAITPPPAAGELPEQESVGAQQYQSWVPGEDGQPSPGVDTQIFEDPREFLSHLEEYLRQVGGSEEYWLSQIQNHMNGPAKKWWEFKQGSVKNWVEFKKEFLQYSEGTLSREAIQRELDLPQKQGEPLDQFLWRKRDLYQTLYVDAEEEEIIQYVVGTLQPKFKRFLRHPLPKTLEQLIQRGMEVQDGLEQAAEPSVTPLPTEDETEALTPALTSESVASDRTQPE
B14: PUM1 701-774 (Homo sapiens, UniProt Q14671); sequence looked up; chain TGSGSRRDSLTGSSDLYKRTSSSLTPIGHSFYNGLSFSSSPGPVGMPLPSQGPGHSQTPPPSLSSHGSSSSLNL
B15: moe1 (Schizosaccharomyces pombe, UniProt O94236); sequence looked up; chain MATGFKLPELAPVKSAWGPPETEQIGGDIPYAPFSKGDRLGKIADWSVDQPKDGREQRGRQGAFAGRFRDQYQTYGYGASSIFGYQHSEDESSFSVIDRGSVNRTRTSARNGGTLLKVRGRGQNVQRGGRGGRYGSSGGRGAGDTVVSRSSGAGGARGRRFGWKDYDKHQRLRNASVTVGDDWQLLDEVEFSHLSKLNLAAAAPVTVDSYGYIYPYDKSFDKIHVKSEKPLQALDRVHYNPTTTEDPVIQKLALNSDANIFITDSILSLLMCSTRSVYPWDIVITHQSGKLFFDKREGGPFDYLTVNENAYDSPMDADNREGVNSPGALSVEATYINQNFCVQALRETEEEKYKLPHPNPFYNSKEQSEPLAAHGYIYRDVDLSLETDEKPVKLMVRTEVDGYVKNPANDVQYISIKALNEYDPKFTNVTGSVDWRSKLESQRGAVFATEMKNNSCKLARWTVEALLAGVDSMKVGFVSRSNARDAQHHGILGVVAYKPADLASQMNLSLSNGWGIVRTIADVCLKMPDGKYVLVKDPNRPILRLYSVPPNTFEEAAGPSLEASSTA
B16: pduL (Salmonella enterica, UniProt Q9XDN5); sequence looked up; chain MDKELLQSTVRKVLDEMRQRPIPLGVSNRHIHLSAQDYERLFPGHPISEKKALLQPGQYAAEQTVTLVGPKGQLKNVRLLGPLRSVSQVEISRTDARTLGIAAPLRMSGNLKGTPGIRLVSPFAELELPSGVIVAQRHIHMSPLDALILRVSHGDMVSVAIEGDDRGLIFNNVAIRVSPDMRLEMHIDTDEANAAGADNPHAFARLVGPR
Sequence of UniProt O95456 (whole entry, looked up): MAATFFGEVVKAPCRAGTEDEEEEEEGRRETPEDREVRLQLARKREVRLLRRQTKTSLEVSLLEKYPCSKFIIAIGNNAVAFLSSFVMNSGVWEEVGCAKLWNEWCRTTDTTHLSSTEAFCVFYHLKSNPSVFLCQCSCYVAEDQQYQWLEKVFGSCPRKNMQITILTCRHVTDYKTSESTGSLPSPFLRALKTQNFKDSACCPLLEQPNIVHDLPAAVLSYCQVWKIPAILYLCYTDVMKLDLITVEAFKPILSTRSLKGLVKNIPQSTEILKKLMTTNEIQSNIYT
Sequence of UniProt Q9P3A7 (whole entry, looked up): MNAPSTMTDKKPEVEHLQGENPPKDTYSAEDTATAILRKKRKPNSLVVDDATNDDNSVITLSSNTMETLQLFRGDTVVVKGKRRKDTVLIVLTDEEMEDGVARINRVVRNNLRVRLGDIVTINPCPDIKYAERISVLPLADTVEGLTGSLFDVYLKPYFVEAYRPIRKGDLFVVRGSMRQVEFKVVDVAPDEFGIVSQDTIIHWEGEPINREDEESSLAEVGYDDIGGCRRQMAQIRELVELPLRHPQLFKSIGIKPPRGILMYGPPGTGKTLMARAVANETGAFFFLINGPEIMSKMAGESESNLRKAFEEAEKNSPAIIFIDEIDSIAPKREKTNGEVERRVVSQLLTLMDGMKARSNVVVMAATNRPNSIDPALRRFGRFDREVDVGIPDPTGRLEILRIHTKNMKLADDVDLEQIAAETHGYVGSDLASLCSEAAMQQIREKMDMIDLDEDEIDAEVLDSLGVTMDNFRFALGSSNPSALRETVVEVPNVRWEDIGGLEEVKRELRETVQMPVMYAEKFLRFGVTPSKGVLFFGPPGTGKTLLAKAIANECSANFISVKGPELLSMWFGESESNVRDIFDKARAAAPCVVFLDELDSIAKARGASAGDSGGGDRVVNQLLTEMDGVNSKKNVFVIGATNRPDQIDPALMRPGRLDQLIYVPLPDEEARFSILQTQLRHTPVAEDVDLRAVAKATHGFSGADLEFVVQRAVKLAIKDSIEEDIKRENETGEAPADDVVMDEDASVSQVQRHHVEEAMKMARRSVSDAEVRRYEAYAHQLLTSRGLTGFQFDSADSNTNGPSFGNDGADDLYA
Sequence of UniProt Q9QY76 (whole entry, looked up): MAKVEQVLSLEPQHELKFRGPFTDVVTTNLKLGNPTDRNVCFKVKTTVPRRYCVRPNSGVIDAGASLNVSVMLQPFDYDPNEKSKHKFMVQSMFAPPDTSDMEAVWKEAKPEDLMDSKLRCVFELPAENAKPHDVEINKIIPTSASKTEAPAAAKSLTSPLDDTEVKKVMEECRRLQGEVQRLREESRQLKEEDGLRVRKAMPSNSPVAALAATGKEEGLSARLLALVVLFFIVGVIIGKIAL
Sequence of UniProt O14497 (whole entry, looked up): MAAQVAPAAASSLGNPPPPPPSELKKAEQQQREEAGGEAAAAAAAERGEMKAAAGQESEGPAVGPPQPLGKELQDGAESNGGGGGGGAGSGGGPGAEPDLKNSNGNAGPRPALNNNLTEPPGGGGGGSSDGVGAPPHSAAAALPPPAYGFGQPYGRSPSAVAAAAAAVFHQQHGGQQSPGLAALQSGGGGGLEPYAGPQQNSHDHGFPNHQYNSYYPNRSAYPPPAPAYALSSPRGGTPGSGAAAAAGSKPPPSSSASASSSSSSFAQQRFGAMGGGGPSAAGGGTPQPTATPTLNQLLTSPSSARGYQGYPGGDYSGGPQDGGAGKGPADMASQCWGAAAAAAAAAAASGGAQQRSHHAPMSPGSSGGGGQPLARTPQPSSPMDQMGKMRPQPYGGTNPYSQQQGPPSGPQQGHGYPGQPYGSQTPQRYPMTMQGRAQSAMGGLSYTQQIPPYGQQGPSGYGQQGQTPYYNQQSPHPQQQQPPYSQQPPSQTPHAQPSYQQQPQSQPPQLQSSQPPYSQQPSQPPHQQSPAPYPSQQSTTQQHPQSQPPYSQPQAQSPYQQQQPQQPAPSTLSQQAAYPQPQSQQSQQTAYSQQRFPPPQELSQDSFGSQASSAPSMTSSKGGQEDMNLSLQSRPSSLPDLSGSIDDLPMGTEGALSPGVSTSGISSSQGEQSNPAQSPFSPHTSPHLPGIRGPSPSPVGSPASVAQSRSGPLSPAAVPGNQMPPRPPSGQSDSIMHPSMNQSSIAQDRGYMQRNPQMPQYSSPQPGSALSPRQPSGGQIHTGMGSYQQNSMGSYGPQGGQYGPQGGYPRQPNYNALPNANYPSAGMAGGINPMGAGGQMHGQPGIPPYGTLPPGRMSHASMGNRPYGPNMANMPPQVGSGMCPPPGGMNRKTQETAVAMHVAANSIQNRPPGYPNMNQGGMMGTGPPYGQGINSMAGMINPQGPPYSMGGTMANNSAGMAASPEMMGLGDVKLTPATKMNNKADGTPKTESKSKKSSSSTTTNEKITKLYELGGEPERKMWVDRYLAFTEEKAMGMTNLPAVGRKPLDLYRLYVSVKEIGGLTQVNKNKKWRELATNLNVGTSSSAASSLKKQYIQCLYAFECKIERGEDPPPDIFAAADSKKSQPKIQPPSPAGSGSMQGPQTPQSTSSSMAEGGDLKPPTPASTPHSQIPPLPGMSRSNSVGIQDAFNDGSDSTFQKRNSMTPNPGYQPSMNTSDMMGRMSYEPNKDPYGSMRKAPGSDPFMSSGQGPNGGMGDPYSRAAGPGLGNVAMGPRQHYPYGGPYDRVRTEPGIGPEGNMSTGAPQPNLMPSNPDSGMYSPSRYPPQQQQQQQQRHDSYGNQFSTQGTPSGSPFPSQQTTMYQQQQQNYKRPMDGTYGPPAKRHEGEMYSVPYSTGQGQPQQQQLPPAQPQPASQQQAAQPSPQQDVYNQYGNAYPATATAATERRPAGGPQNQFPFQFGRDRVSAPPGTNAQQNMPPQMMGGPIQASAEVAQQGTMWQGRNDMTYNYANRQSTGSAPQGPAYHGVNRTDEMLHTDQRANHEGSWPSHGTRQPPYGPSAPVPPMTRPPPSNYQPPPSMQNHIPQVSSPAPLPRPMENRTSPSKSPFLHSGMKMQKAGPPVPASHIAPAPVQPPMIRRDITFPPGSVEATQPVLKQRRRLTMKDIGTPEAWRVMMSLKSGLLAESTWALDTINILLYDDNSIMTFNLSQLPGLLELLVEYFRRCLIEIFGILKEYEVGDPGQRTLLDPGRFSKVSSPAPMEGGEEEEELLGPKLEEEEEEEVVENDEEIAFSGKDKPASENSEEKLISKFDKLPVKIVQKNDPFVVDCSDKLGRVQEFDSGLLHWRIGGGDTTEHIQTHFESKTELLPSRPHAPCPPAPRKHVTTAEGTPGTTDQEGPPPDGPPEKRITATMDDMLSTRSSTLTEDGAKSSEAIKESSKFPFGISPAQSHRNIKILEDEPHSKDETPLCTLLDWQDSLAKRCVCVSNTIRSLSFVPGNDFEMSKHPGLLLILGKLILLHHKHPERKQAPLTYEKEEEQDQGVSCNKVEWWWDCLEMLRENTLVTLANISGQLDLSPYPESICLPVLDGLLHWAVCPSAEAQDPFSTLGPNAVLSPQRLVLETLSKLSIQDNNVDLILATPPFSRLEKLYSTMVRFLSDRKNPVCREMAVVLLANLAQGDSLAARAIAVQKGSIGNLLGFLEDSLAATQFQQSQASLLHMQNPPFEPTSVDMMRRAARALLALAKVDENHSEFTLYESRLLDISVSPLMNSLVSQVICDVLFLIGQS
Sequence of UniProt Q9FXQ3 (whole entry, looked up): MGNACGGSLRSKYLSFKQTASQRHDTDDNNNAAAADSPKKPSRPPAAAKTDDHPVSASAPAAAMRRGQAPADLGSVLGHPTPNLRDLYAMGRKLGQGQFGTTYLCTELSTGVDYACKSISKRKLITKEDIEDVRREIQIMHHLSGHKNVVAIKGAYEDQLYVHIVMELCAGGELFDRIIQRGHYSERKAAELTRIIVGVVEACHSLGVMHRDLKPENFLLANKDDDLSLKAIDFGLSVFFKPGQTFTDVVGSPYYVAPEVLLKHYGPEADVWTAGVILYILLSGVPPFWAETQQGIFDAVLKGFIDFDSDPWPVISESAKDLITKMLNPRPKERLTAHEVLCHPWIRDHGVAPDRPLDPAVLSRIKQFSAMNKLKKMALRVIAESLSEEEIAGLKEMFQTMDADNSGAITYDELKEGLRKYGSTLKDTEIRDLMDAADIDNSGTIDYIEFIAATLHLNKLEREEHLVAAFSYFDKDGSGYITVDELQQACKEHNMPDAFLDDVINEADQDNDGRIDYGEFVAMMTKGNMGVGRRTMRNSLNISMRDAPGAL
Sequence of UniProt P26901 (whole entry, looked up): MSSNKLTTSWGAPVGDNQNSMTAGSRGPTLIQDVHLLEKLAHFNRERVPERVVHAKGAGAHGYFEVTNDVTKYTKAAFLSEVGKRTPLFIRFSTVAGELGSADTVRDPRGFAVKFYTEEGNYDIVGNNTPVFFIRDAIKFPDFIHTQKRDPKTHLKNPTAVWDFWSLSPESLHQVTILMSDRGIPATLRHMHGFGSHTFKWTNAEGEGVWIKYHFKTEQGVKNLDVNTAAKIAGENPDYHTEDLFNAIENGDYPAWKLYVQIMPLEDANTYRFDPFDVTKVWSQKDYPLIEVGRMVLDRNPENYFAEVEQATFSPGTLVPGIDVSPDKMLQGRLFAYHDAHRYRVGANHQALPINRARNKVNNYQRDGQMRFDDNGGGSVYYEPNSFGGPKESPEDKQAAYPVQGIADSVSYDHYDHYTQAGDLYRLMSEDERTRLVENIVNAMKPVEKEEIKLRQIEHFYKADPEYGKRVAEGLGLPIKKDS
Sequence of UniProt Q8TCE6 (whole entry, looked up): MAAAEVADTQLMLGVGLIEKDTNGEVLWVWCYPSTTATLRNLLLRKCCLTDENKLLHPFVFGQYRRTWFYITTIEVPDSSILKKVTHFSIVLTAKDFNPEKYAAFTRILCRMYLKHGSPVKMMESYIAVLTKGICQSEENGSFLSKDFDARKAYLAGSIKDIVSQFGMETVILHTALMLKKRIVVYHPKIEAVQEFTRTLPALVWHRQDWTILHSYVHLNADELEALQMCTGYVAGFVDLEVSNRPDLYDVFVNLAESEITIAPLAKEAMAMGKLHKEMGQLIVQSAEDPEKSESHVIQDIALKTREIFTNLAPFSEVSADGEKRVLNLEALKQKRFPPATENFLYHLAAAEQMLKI

Molecule	partner	technique	molecule type	temperature	added	binding
B1	portal protein dodecamer (Staphylococcus phage 80alpha, UniProt A4ZFA8)	cryo-EM	–	–	–	binds
B2 (PSMA5)	PSMG1 (Homo sapiens, UniProt O95456)	cryo-EM	–	–	–	binds
B3 (IGFBP7 30-159 K146A)	CD93 25-347 (Homo sapiens, UniProt Q9NPY3)	ITC	–	25 °C	–	binds
B4 (SNAPC5)	SNAPC4 (Homo sapiens, UniProt Q5SXM2)	cross-linking	–	–	–	binds
B5 (yjoB)	katA (Bacillus subtilis, UniProt P26901)	SEC	–	–	AMPPNP	binds
B6 (GATA2)	ARID1A 1111-1634 (Homo sapiens, UniProt O14497)	bead binding, confocal imaging	–	–	–	binds
B7 (cysJ 52-599)	cysI 1-570 (Escherichia coli, UniProt P17846)	cryo-EM structure	–	–	–	binds
NGVTKTILEPRARVEKDYGKISLEHKTKYSNEYGD (gld-3 860-894 (Caenorhabditis elegans, UniProt Q95ZK7); sequence looked up)	fbf-2 164-575 (Caenorhabditis elegans, UniProt Q09312)	fluorescence polarisation	–	–	–	binds
B8 (CCDC22 280-446)	DENND10 (Homo sapiens, UniProt Q8TCE6)	SEC	–	–	–	binds
B9 (TAF4 Q1 domain, 428-492)	T1, CREB1 160-280 (Rattus norvegicus)	NMR	–	–	–	binds
KPPKKRCLLAPRWDYPEGTP (NBDY 22-41 (Homo sapiens, UniProt A0A0U1RRE5); sequence looked up)	EDC4 974-1401 (Homo sapiens, UniProt Q6P2E9)	pull-down	–	–	–	binds
B10 (POL31)	POL3 (Saccharomyces cerevisiae, UniProt P15436)	SAXS	–	–	–	binds
OsMPK3-YFP (Oryza sativa, UniProt Q10N20)	OsCPK13 full length, GST fusion (Oryza sativa, UniProt Q9FXQ3)	pull-down	–	–	–	binds
SEEEFFDAHE (Pitpnm1 residues 346-355 (Mus musculus))	Vapb 1-125 (Mus musculus, UniProt Q9QY76)	X-ray crystallography	peptide	–	–	binds
RRRRKRVNTKRSSRAFRAHLRAPL (DRD2 217-240 (Homo sapiens, UniProt P14416))	EPB41L2 939-1005 E1004I (Homo sapiens, UniProt O43491)	ITC	–	–	–	binds
B11 (BECN1 1-171)	BCL2L1 1-208 N52D/N66D (Homo sapiens, UniProt Q07817-1)	pull-down	–	–	–	binds
LANFLVHSSNNFGAIL (hIAPP residues 12-27 (Homo sapiens); O-GlcNAc serine)	IAPP mature, Alexa Fluor 647 label (Homo sapiens, UniProt P10997)	MST	peptide	25 °C	–	binds
B12 (FERMT2 1-105)	PXN (Homo sapiens, UniProt P49023-3)	NMR titration	–	–	–	binds
B13 (Arc)	tau 2N4R, phosphorylated (Homo sapiens, UniProt P10636-8)	pull-down	–	–	–	binds
B14 (PUM1 701-774)	CNOT1/CNOT2/CNOT3 C-terminal NOT module 1833-2361	pull-down	–	–	–	binds
B15 (moe1)	cdc48 (Schizosaccharomyces pombe, UniProt Q9P3A7)	far-Western overlay	–	–	–	binds
B16 (pduL)	PduB (Salmonella enterica Typhimurium LT2, UniProt P37449)	cross-linking	–	–	–	binds

Excerpt of the above:
Molecule	partner	technique	molecule type	temperature	added	binding
B11 (BECN1 1-171)	BCL2L1 1-208 N52D/N66D (Homo sapiens, UniProt Q07817-1)	pull-down	–	–	–	binds
B10 (POL31)	POL3 (Saccharomyces cerevisiae, UniProt P15436)	SAXS	–	–	–	binds
